Results gathered from unrelated publications.
Lines come from different studies, so protocols differ. Numbers after ± are the reported error.
Organism: Plasmodium falciparum

The IC50 of Clc1ccc(C2=CC(c3ccc[nH]3)=NC2=CNC2CCCCC2)cc1 is reported as 1.02 µM (parasite growth, SYBR Green I fluorescence; D6, chloroquine-sensitive).
CCNCC#CCNc1ccnc2cc(Cl)ccc12 gave an IC50 of 0.086 µM (parasite growth, LDH).
The IC50 of COc1cccc2c(-c3ccc4c(c3O)[C@@H](C)N[C@H](C)C4)c(CO)cc(OC)c12 is reported as 0.015 µM (parasite growth, SYBR Green; NF54; 96 h, blood stage).
With COc1cc(C)ccc1NC(=O)C1NCCc2ccccc21 (centres unmarked) the IC50 was 8.8 µM (parasite growth, SYBR Green; 3D7; 96 h, blood stage).
c1ccc(CCCNc2ncnc3cc(OCC4CCN(CCNc5cccc6ccccc56)CC4)ccc23)cc1 gave an IC50 of 0.392 µM (parasite growth; NF54; blood stage).
CC(C)(C)OC(=O)CNC(=O)[C@H](CCC(=O)N(O)c1ccc(Br)cc1)NC(=O)CC[C@H](N)C(=O)OC(C)(C)C has an IC50 of 35 µM (blood-stage growth, Giemsa-stained smears; 3D7; 48 h, synchronous culture).
With CC1=CC(=CNC2CCCCCCC2)N=C1c1ccc[nH]1 the IC50 was 1.38 µM (parasite growth, SYBR Green I fluorescence; D6, chloroquine-sensitive).
The IC50 of COC(=O)[C@@H]1Cc2c([nH]c3ccccc23)[C@@H](c2cccs2)N1 is reported as 4.5 µg/mL (parasite growth; 3D7; 48 h, blood stage).
CC(C)(C)OC(=O)CNC(=O)[C@H](CCC(=O)N(O)c1ccc(Br)cc1)NC(=O)NC[C@H](N)C(=O)OC(C)(C)C gave an IC50 of 30 µM (blood-stage growth, Giemsa-stained smears; 3D7; 48 h, synchronous culture).
With CC1=C[C@@H](C)[C@H]2[C@@H]3C(=O)C(Cl)(Cl)C(=O)[C@H](C)C(=O)O[C@@H](C)/C=C/C=C\[C@@H](C)[C@@H]3C=C[C@@H]2C1 the IC50 was 0.014 µM (parasite growth, ELISA; 3D7; blood stage).
With O=c1c(NCCCN(Cc2ccc(F)cc2)c2ccccn2)c(NCc2cccnc2)c1=O the IC50 was 0.0161 ± 0.00587 µM (parasite growth, flow cytometry; 3D7; 72 h).
The IC50 of COc1ccc2c(c1)[n+]([O-])c(C#N)c(-c1ccco1)[n+]2[O-] is reported as 0.63 ± 0.14 µM (parasite growth, [3H]hypoxanthine incorporation; 3D7 chloroquine-sensitive).
COC1=CC(c2ccc[nH]2)=NC1=CNC12CC3CC(CC(C3)C1)C2 gave an IC50 of 0.0031 µM (parasite growth, SYBR Green I fluorescence; D6, chloroquine-sensitive).
With O=C(C1CCN(c2nnnn2-c2ccccc2)CC1)N1CCCc2ccccc21 the IC50 was 2 µM (parasite growth; 72 h, gametocyte).
O=C1CC2(CCN(c3cc(N4CCN(S(=O)(=O)c5ccc(Cl)s5)CC4)ncn3)CC2)Oc2ccccc21 gave an IC50 of 6.68 ± 0.09 µM (parasite growth).
O=C1c2ccc3c4c(ccc(c24)C(=O)N1CCCn1ccnc1)C(=O)N(CCCn1ccnc1)C3=O gave an IC50 of 0.26 µM (parasite growth, SYBR Green; 3D7; 72 h, blood stage).
COC1=CC(c2ccc[nH]2)=NC12O[C@@H](C)C[C@@H]1CCCCC(=O)CCc3ccc([nH]3)[C@H]12 (some centres unmarked) has an IC50 of 0.138 µM (parasite growth; D6; blood stage).
N[C@@H](CCC(=O)N[C@@H](CCC(=O)N(O)c1ccc(Br)cc1)C(=O)NCC(=O)O)C(=O)O has an IC50 of 70 µM (blood-stage growth, Giemsa-stained smears; 3D7; 48 h, synchronous culture).
O=C(C1CCN(c2nnnn2-c2ccccc2)CC1)N1CCOc2ccccc21 gave an IC50 of 6.8 µM (parasite growth, SYBR Green; 3D7; 72 h, blood stage).
For CC(=O)O[C@@H]1C[C@H]2C(C)(C)C(=O)C=C[C@]2(C)[C@H]2CC[C@]3(C)C(=CC[C@H]3C3=CC(O)OC3=O)[C@@]21C (some centres unmarked), the IC50 was under 2.4 µM (cell growth; D6 and W2).
CCCCCCCCCC1CC2CCCC3CC(CCCCCCCCC)NC(=N1)N23 (centres unmarked) has an IC50 of 1.39 µM (parasite growth, plasmodial LDH; D6 chloroquine-sensitive).
The IC50 of COc1cc(O)c(-c2cc(-c3c(C)cc(O)c4c(OC)ccc(-c5c(O)cc(OC)c6c5C[C@@H](C)N(C)[C@@H]6C)c34)c(O)c3c(OC)cc(C)cc23)c2c1[C@@H](C)N(C)[C@H](C)C2 is reported as 0.039 µM (parasite growth; NF54; blood stage).
N#Cc1ccc(-n2nnnc2N2CCC(C(=O)N3CCCc4ccccc43)CC2)cc1 has an IC50 of 3.2 µM (parasite growth, SYBR Green; 3D7; 72 h, blood stage).
N[C@@H](CCC(=O)N[C@@H](CCC(=O)N(O)c1ccc(Br)cc1)C(=O)NCC(=O)OC1CCCC1)C(=O)OC1CCCC1 has an IC50 of 30 µM (blood-stage growth, Giemsa-stained smears; 3D7; 48 h, synchronous culture).
With CC(=NNC(=S)NN=C(C(=NO)c1ccccc1)c1ccccc1)c1ccccc1 the IC50 was 3.07 µM (parasite growth, SYBR Green; 3D7; 72 h, blood stage).
For CCCCN1C(=O)c2ccc3c4c(ccc(c24)C1=O)C(=O)N(c1c2ccccc2nc2ccccc12)C3=O, the IC50 was 4.2 µM (parasite growth, SYBR Green; 3D7; 72 h, blood stage).
COC1C(C)C2C(C=CC3C(C)C=CC=CC(C)OC(=O)C(C)C(=O)C(Cl)(Cl)C(=O)C32)CC1(C)O (centres unmarked) has an IC50 of over 11 µM (parasite growth, ELISA; 3D7; blood stage).
O=C(C1CCN(c2nnnn2-c2ccccc2C(F)(F)F)CC1)N1CCCc2ccccc21 has an IC50 of 4.3 µM (parasite growth, SYBR Green; 3D7; 72 h, blood stage).
CCN(CC)C/C=C/CNc1ccnc2cc(Cl)ccc12 gave an IC50 of 1.47 ± 0.12 µM (parasite growth; Dd2).
The IC50 of C[C@@H]1C(=O)O[C@@H](C)/C=C/C=C\[C@@H](C)[C@@H]2C=C[C@@H]3C[C@]4(C)O[C@@H]4[C@@H](C)[C@H]3[C@@H]2C(=O)C(Cl)(Cl)C1=O is reported as 0.101 ± 0.055 µM (HRP2 ELISA; 3D7).
The IC50 of CC(C)=CCC/C(C)=C/Cc1c(CCC(=O)c2ccc(O)cc2O)ccc(O)c1O is reported as 10.4 µM (parasite growth; 3D7; blood stage).
The IC50 of Cc1cc2[nH]c(C(=O)Nc3ccccc3C)c(CN3CCOCC3)c2s1 is reported as over 50 µM (growth, [3H]hypoxanthine incorporation; 3D7; 48 h).
COc1cc2nc(N3CCCN(C)CC3)nc(NC(C)C)c2cc1OC gave an IC50 of 0.323 µM (parasite growth, SYBR Green I; 3D7; 3 days).
For CC1=CC(c2ccc[nH]2)=NC1=CNC1CCCCCCC1, the IC50 was over 0.25 µM (parasite growth, SYBR Green I fluorescence; D6, chloroquine-sensitive).
With COc1cccc2c(-c3ccc(O)c4c3CCNC4)ccc(O)c12 the IC50 was 0.576 µM (parasite growth, SYBR Green; NF54; 96 h, blood stage).
Clc1ccc(C2=CC(c3ccc[nH]3)=NC2=CNC2CCCCCCC2)cc1 gave an IC50 of 0.832 µM (parasite growth, SYBR Green I fluorescence; D6, chloroquine-sensitive).
CC[C@H](C)[C@@H]1NC(=O)[C@H](CCCCN)NC(=O)[C@H](CCCCN)NC(=O)[C@H](Cc2ccc(O)cc2)NC(=O)[C@H](CC(C)C)NC(=O)[C@@H]2CCCN2C(=O)CNC(=O)CNC(=O)[C@@H](NC(=O)CN)CSSC[C@@H](C(=O)N[C@@H](CCC(=O)O)C(=O)N[C@@H](CO)C(N)=O)NC(=O)[C@H](CC(C)C)NC(=O)[C@H](CCCCN)NC(=O)[C@H](CCCCN)NC(=O)[C@H]([C@@H](C)CC)NC(=O)[C@H]([C@@H](C)CC)NC(=O)[C@H](CCCCN)NC(=O)[C@H](CCCCN)NC(=O)[C@H](Cc2ccc(O)cc2)NC(=O)[C@H](CC(C)C)NC(=O)[C@@H]2CCCN2C(=O)[C@H](C)NC(=O)CNC(=O)CNC(=O)[C@H](CO)NC(=O)CNC(=O)CNC(=O)[C@H](CO)NC(=O)[C@H](CCC(=O)O)NC(=O)[C@H](CC(C)C)NC(=O)[C@H](CC(C)C)NC(=O)[C@H](CCCCN)NC(=O)[C@H](CCCCN)NC(=O)[C@H]([C@@H](C)CC)NC1=O has an IC50 of 13.6 ± 1.7 µM (parasite growth; 3D7; 72 h, Albumax II medium, no serum).
The IC50 of O=[N+]([O-])c1ccc(C(=S)Nc2ccccc2)cc1 is reported as 80 µM (parasite growth, SYBR Green; 3D7; 96 h, blood stage).
With CCC1=C(C)C(c2ccc[nH]2)=NC1=CNC1CCCCCCC1 the IC50 was 0.111 µM (parasite growth, SYBR Green I fluorescence; D6, chloroquine-sensitive).
With N#Cc1c(-c2ccco2)[n+]([O-])c2ccccc2[n+]1[O-] the IC50 was 0.75 ± 0.31 µM (parasite growth, [3H]hypoxanthine incorporation; 3D7 chloroquine-sensitive).
With Cc1[nH]c(C=NC23CC4CC(CC(C4)C2)C3)c(C)c1-c1ccc[nH]1 the IC50 was 1.42 µM (parasite growth, SYBR Green I fluorescence; D6, chloroquine-sensitive).
With COc1ccc2c(c1)C1CC(C)(N2)c2c(C)nc3ccc(OC)cc3c21 (centres unmarked) the IC50 was 2.46 µM (parasite growth, SYBR Green; blood stage).
The IC50 of C1=CC(c2ccc[nH]2)=NC1=CNC1CCCCCC1 is reported as over 2.5 µM (parasite growth, SYBR Green I fluorescence; D6, chloroquine-sensitive).
c1ccc(Cn2c(N3CCNCC3)nc3cccnc32)cc1 gave an IC50 of over 1 µM (parasite growth; NF54; blood stage).

Some of these lines once more:
For CC(=O)O[C@@H]1C[C@H]2C(C)(C)C(=O)C=C[C@]2(C)[C@H]2CC[C@]3(C)C(=CC[C@H]3C3=CC(O)OC3=O)[C@@]21C (some centres unmarked), the IC50 was under 2.4 µM (cell growth; D6 and W2).
CCCCCCCCCC1CC2CCCC3CC(CCCCCCCCC)NC(=N1)N23 (centres unmarked) has an IC50 of 1.39 µM (parasite growth, plasmodial LDH; D6 chloroquine-sensitive).
